# Experimental data of several laboratories.
# A part holds a random share of what one study measured.

# Set 1 — technique: protein-binding microarray; form: double-stranded DNA, one strand shown; sample: in vitro; tested at: 2540 nM top; notes: 60-bp whole probe; added: salmon DNA 0.4 mg/ml; baseline: random background probes; direction: higher = stronger binding; constant ends, left off below: GCCTAGCAC … GTCTTGATTCGCTTGACGCTGCTG
# Target: Interferon regulatory factor 3, full length, phosphomimetic (IRF3, Homo sapiens, UniProt Q14653, residues 1-427, S386D/S396D/S398D/S402D/T404D/S405D)
# Residues (chain): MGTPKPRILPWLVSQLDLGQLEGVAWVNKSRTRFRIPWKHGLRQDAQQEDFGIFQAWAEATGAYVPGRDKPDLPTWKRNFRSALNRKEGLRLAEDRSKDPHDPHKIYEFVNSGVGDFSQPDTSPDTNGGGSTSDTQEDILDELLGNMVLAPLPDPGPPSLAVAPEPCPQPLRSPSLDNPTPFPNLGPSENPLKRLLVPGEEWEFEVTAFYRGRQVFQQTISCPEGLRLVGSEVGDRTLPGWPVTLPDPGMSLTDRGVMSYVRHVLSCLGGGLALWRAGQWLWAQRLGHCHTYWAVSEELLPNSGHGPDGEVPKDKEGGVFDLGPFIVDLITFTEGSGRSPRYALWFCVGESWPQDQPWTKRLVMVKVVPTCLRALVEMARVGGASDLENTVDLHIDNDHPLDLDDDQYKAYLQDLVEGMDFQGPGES
Strand,fitted relative affinity
TTAGGTTTCCTTCTCCTTTAGTGCTAG,10.1 z-score
GTCGATATCAGACTGGAGACGTGCTAG,0.984 z-score
TTAGATACCAGTTTCGATTAGTGCTAG,3.96 z-score
GACGGACTGGGTCTCTGGACGTGCTAG,-0.95 z-score
AACGGACTGGGTCTCGGGACGTGCTAG,-0.701 z-score
CTAGGTTTCGGTATCGGTTAGTGCTAG,8.56 z-score
ATCCATTTTGGTTTTCATTAGTGCTAG,3.1 z-score
TCCACTTGTCTTTTCACTTTGTGCTAG,1.54 z-score
GACGAACTGACTTTCGAGACGTGCTAG,0.471 z-score
CTTATTCTCTACTTGTGTCTGTGCTAG,2.17 z-score
TTAGATATCAGTATCGATCAGTGCTAG,1.33 z-score
TTTGGTTTCCTTTCCCTTTAGTGCTAG,11.3 z-score
TTAGAAATCAGTATCGATTAGTGCTAG,1.34 z-score
GCCGGACTGGACTTTCGGGACGTGCTA,0.261 z-score

# Set 2 — technique: RNA Bind-n-Seq; form: RNA; sample: in vitro; tested at: 365 nM; baseline: no-protein control; direction: higher = stronger binding
# Target: RNA binding protein fox-1 homolog 2, RRM domain, GST-SBP tag (RBFOX2, Homo sapiens, UniProt O43251-10, residues 100-194)
# Notes: natural RNA segment, single round, ends assumed
# Target sequence (chain): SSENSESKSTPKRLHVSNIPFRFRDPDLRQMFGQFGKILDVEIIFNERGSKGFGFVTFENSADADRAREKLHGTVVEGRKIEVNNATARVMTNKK
Strand,RBNS enrichment (R)
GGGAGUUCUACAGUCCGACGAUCCCUGCUGGGACCUAUGGAAGGGGCUUCCUGGCCAAGGCCCCCUCUUCCAGAGGAGGAGCAGGGAUCUGGGUUUCCUUUUUUUUUUCUGUUUUGGGUGUACUCUAGGGGCCUGGAAUUCUCGGGUGCCAA,0.385
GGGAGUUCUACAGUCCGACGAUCUCCUUAAUUGUAGCCUUUGAAGGAUCCCCUGUUAGACCGCCAGUCAGUGCCACGAGUUGAAAGCUUCCAUACUGAACACUAUCCUUUCACUAUAUAAGUAAAGCAAAUAUUGGAAUUCUCGGGUGCCAA,0.501
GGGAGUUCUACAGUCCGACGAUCCCUUUGCCUUUCCCGCUCCCACUAUCUGGGCUUUGACUCCAUGGAUAUUAAAAAAGUAGAAUAUUUUGUGUUUAUCUCCCACACAGCCCCAAAUUCUUUUGUUGUGUGUGUGGAAUUCUCGGGUGCCAA,0.927
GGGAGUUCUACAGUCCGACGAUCGCUUCCCAGAGAAGCUCAUUUAGUUAGAAAAUAAGGCAAGUUUUGAAGCCUGCUAAAUGAAGAGACUUAAGAAAGCUUAAGGUACGCUUGCUUGUCUUUAAAUCUUCAAUUGGAAUUCUCGGGUGCCAA,0.786
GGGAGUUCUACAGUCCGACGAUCUUAGCCCAUUGCCAAAAGGUUUUACUGUCUUAAAGCUGUCUUUCUGAGAUCUAAUUCCAAGGACUUCUCCACAGCUAAGUGAGAUGCCUCACACCAUUAGGUGAUGCUUUUGGAAUUCUCGGGUGCCAA,0.32
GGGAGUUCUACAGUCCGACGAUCGUGCCUUGCCAGAGAGCUUACGAUCUAUAUCUGCUGCUUCAGAGCCUUCCCUGAGGAUGGCUCUGUUCCUUUGCUUGUUAGAAGAGCGAUGCCUUGGGCAGGGUUUCCCCUGGAAUUCUCGGGUGCCAA,0.398
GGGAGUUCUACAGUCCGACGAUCGGGAUAUUGCCUUAUUUGUCUGUAAAAAAUGGAGCUCAGUAACAUAACUGCUUCUUGGAGCUUUGGAAUAUUUUAUCCUGUAUUCUUGUUUGAAUUCCUCCUCUAUUUAAUGGAAUUCUCGGGUGCCAA,0.558
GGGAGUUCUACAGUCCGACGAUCCAUUAUUAAUAUUUUUUUUAAACUAAUUUGGGGAGGGAGGGUUAGCUUAAGUGCUAAGUCAGGUGUGGAUCCACAGGAGGGUUCCAACAGAGUGUUUCCUCCACUGUAUAUGGAAUUCUCGGGUGCCAA,0.948

# Set 3 — technique: protein binding microarray; form: double-stranded DNA, one strand shown; sample: in vitro; tested at: not given; baseline: not given; direction: higher = stronger binding
# Target: Histone acetyltransferase KAT6A, both winged helices, GST fusion (KAT6A, Homo sapiens, UniProt Q92794, residues 1-181)
# Notes: 8-mer, flanks averaged, mean of 2 arrays, mostly near background
# Residues (chain): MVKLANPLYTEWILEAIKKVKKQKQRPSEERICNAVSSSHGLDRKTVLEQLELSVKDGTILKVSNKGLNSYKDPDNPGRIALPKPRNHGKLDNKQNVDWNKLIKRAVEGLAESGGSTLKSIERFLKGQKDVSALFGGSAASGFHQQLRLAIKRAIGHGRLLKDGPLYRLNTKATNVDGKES
Strand,E-score
CGTAGAAG,0.0532
ACCCAATC,-0.155
GCACCTGA,-0.16
AGGTACTA,-0.181
ATGAGTAC,0.0267
ACTTTAGG,-0.174
CATGATGC,0.0338
AATACTCT,-0.0999
CTGCATAA,-0.188
ACCATAAA,-0.0591
GTAATTAC,0.0168
GGTTTCCA,-0.149
CCGCGAGA,0.238
ATAAACTC,0.0063
CACGCTTA,0.0613
CTTAGCCA,-0.0252
ACAAAAAG,-0.116
CAGACTCC,-0.0782
ATCCCGAA,-0.0209
CCGGGCCA,0.176
CTTTGAAC,-0.0525
CACCGCGG,0.361
ACAAGGAG,0.0752
CCGTTCGC,0.22
CGGCGGAC,0.275

# Set 4 — target: UBE2D1 UBC core domain (UniProt P51668); technique: yeast two-hybrid; sample: yeast; notes: mostly zero background; baseline: not given; direction: higher = stronger interaction
# B1: MSL2 RING domain (UniProt Q9HCI7); chain LLPYFRQSLSCCVCGHLLQDPIAPTNSTCQHYVCKTCKGKKMMMKPSCSWCKDYEQFEENKQ
# B2: TRIM52 RING domain (UniProt Q96A61); chain PMQTLQEEAVCAICLDYFKDPVSISCGHNFCRGCVTQLWSKEDEEDQNEEEDEWEEEEDEEAV
# B3: RNF150 RING domain (UniProt Q9ULK6); chain DKETESDFDNCAVCIEGYKPNDVVRILPCRHLFHKSCVDPWLLDHRTCPMCKMNILKALGIP
# B4: NSMCE1 RING domain (UniProt Q8WV22); chain RETYPDAVKICNICHSLLIQGQSCETCGIRMHLPCVAKYFQSNAEPRCPHCNDYWPHEIPKV
# B5: TRIM38 RING domain (UniProt O00635); chain STKKMMEEATCSICLSLMTNPVSINCGHSYCHLCITDFFKNPSQKQLRQETFCCPQCRAPFHMDSLRP
# B6: RNF4 RING domain (UniProt P78317); chain TGLRPSGTVSCPICMDGYSEIVQNGRLIVSTECGHVFCSQCLRDSLKNANTCPTCRKKINHKRYHP
# B7: RNF14 RING domain (UniProt Q9UBS8); chain IKCFNSKLFLCSICFCEKLGSECMYFLECRHVYCKACLKDYFEIQIRDGQVQCLNCPEPKCPSVATPGQVK
# Residues (chain): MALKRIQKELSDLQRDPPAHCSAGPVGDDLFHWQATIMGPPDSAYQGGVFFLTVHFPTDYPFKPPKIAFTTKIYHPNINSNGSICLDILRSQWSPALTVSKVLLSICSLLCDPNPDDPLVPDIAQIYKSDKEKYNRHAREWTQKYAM
Sequence,lacZ reporter activity
B1 (MSL2 RING domain),0
B2 (TRIM52 RING domain),0
B3 (RNF150 RING domain),11200
B4 (NSMCE1 RING domain),0
B5 (TRIM38 RING domain),0
B6 (RNF4 RING domain),3450
B7 (RNF14 RING domain),0

# Some of these lines once more (set 3):
Strand,E-score
CCGCGAGA,0.238
CTTAGCCA,-0.0252
GCACCTGA,-0.16
